Results pooled from the literature.
Every numbered part comes from another study and shows a few of its results, in no order. Positions count from the first letter of the parent shown.

Set 1
Target: MAFK, bZIP domain (human)
Technique: DHFR protein complementation
Sample: yeast
Setting: single substitutions, most at no-binding floor
Reference: wild-type JUN-FOS pair
Direction: higher = stronger binding
Starting sequence: JUN, bZIP domain (human); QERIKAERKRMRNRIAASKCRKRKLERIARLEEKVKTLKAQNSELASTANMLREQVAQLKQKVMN; partner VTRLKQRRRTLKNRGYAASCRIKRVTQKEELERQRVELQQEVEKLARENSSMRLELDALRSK
| Variant | binding fitness |
| --- | --- |
| E32K | -1.51 natural log |
| E54A | -1.29 natural log |
| E32L | -1.43 natural log |
| T37R | -1.34 natural log |
| L45S | -1.55 natural log |
| L38K | -1.51 natural log |
| S47H | -1.4 natural log |
| T37W | -1.3 natural log |
| L45N | -1.5 natural log |
| R53I | -1.54 natural log |
| L31K | -1.51 natural log |
| K36S | -1.55 natural log |

Set 2
Target: Fragile X messenger ribonucleoprotein 1, C-terminal low-complexity region (Fmr1, Mus musculus, UniProt P35922)
Technique: RNA Bind-n-Seq
Form: RNA
Sample: in vitro
Concentration: 200 nM
Setting: whole 134-nt RNA, ends assumed
Together with: 150 mM LiCl
Reference: input library
Direction: higher = stronger binding
All molecules: 7-deaza-guanosine replaces G
Shared flanks, not repeated: GGGAGUUCUACAGUCCGACGAUC … UGGAAUUCUCGGGUGUCAAGG
| Strand | log2 enrichment |
| --- | --- |
| CUCAAGUCCUGUGCUACACAUCGUAUGUACCGAAUCGGGUGGGUUUGGGUGGGAAAGUAUUAUGUUACGCCGUUCGGAUCUGCACUUCCA | -0.0081 |
| CACAGACAACACGCACCCACACAGACACAGAGGGAAGGGGUUCGGAUGGGGACAGGGUGCACAGCAGGGCGGGGUAGGACCCCAGCCCCU | -0.398 |
| CACACACAACACGCACCCACACAGACACAGAGGGAAGGGGUUGGGAUGGGGACAGGGUGCACAGCAGGGCGGGGUAGGACCCCAGCCCCU | 0.292 |
| CCUCAAGUCCUGUGCUACACAUCGUAUGUACCGAAUCGGGAGGGGAGGGGAGGAAAGUAUUAUGUUACGCCGUUCGGAUCUGCACUUCCA | -1.31 |
| AGUCCUGUGCUACACAUCGUAUGUACCGAAUCGGGGAGGGGAGGGGUUUUUUUGGGGAAAGUAUUAUGUUACGCCGUUCGGAUCUGCACU | 0.107 |
| AAGUCCUGUGCUACACAUCGUAUGUACCGAAUCGGAAAAGGGAAAAGGGAAAAGGGAAAGUAUUAUGUUACGCCGUUCGGAUCUGCACUU | -0.644 |
| CUCAAGUCCUGUGCUACACAUCGUAUGUACCGAAUCGGAAAAAAAGGUGGUGGAAAGUAUUAUGUUACGCCGUUCGGAUCUGCACUUCCA | -0.42 |
| CCUCAAGUCCUGUGCUACACAUCGUAUGUACCGAAUCGGAGGUUUGGUUUGGAAAGUAUUAUGUUACGCCGUUCGGAUCUGCACUUCCAG | -1.23 |
| UCAAGUCCUGUGCUACACAUCGUAUGUACCGAAUCGGGAAAGGAAAGGAAAGGGAAAGUAUUAUGUUACGCCGUUCGGAUCUGCACUUCC | -0.689 |
| CUGUGCUACACAUCGUAUGUACCGAAUCGGUUUUUUUGGGGUUUUUUUGGUUUUUUUGGGGAAAGUAUUAUGUUACGCCGUUCGGAUCUG | 0.575 |
| CACAGACAACACGCACCCACACAGACACAGAGGGAAGGGGUUGGGAUGGGGACAGGGUGCACAGCAGGAAAGGGUAGGACCCCAGCCCCU | 0.403 |

Set 3
Target: Sal-like protein 4, full length isoform A (SALL4, Homo sapiens, UniProt Q9UJQ4, residues 1-1053)
Sequence of UniProt Q9UJQ4 (whole entry, looked up): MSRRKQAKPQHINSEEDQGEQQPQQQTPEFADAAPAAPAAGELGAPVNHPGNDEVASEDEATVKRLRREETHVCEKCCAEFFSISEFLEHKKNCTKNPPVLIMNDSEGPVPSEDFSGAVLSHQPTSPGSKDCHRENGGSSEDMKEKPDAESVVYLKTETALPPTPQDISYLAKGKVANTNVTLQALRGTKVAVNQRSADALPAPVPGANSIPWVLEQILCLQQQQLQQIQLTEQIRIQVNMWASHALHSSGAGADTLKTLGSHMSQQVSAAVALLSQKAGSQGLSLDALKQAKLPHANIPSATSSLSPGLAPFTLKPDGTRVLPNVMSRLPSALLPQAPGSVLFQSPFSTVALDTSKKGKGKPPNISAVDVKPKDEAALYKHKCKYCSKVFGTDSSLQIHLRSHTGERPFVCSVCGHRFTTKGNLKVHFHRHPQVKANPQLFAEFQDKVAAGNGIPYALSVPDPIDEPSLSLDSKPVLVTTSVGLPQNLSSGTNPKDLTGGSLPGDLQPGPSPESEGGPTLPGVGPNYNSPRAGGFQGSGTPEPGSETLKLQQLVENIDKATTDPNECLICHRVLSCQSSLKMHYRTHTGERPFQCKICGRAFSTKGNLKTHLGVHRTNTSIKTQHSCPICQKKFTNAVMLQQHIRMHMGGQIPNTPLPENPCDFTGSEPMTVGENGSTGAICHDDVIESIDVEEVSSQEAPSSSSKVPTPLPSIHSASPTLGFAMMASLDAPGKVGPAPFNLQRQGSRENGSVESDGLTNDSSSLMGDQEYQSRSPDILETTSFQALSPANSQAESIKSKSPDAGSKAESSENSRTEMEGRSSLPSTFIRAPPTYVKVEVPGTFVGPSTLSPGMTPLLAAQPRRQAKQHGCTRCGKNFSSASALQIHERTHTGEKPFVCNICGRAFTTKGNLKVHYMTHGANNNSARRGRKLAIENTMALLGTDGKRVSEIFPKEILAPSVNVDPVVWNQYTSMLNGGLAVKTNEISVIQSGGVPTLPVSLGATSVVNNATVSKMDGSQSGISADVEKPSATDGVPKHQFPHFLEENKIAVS
Technique: universal PBM
Form: double-stranded DNA, one strand shown
Sample: in vitro
Concentration: 600 nM
Setting: 8-mer, flanks averaged, mean of replicates
Direction: higher = stronger binding
| Strand | E-score |
| --- | --- |
| AAGCCATA | 0.115 |
| ATTAGCAC | 0.0924 |
| AAAACAGA | 0.218 |
| AGAATCTC | 0.0228 |
| AAGAGACT | 0.0324 |
| CTGAAAAA | 0.107 |
| CACGTAGG | -0.0639 |
| TCTTCACA | 0.179 |
| GGGAATGA | 0.167 |
| GATCGACC | -0.269 |
| AAATCCCG | -0.088 |
| CGATCGTA | -0.105 |
| CTGAACAC | 0.0462 |
| CTAGACGA | -0.0151 |
| CAAGCGAC | -0.127 |
| AATTACGG | 0.112 |
| CAATCTAG | 0.204 |
| ACTGCACT | 0.00276 |
| GACTGTGA | 0.0369 |
| CTACCTCC | -0.142 |
| GCTCATCA | 0.0361 |
| CCAGACAC | -0.207 |
| TGATTCAA | 0.176 |

Set 4
Target: ABI1, truncated, D143A, DHFR fusion (Arabidopsis thaliana)
Technique: DHFR PCA, deep sequencing
Sample: yeast
Setting: methotrexate growth selection, single substitutions
Together with: (+)-ABA 0 µM
Reference: wild-type fitted maximum
Direction: higher = stronger binding
Starting sequence: PYL1, truncated, DHFR fusion (Arabidopsis thaliana); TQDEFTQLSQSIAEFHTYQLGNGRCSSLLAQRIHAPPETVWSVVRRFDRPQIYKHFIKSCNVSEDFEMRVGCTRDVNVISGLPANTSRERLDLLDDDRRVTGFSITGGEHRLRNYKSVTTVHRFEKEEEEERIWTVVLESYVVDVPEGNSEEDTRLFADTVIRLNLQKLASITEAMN; partner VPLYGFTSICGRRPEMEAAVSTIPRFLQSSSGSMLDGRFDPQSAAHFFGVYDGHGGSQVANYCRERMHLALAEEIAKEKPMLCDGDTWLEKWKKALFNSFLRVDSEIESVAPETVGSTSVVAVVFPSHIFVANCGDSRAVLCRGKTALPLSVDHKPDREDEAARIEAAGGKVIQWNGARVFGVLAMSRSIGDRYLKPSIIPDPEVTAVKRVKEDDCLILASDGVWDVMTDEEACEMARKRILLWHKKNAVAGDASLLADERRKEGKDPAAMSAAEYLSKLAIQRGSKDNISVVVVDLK
| Variant | relative binding score |
| --- | --- |
| T173L | -1.56% |
| S171W | 9.95% |
| D3G | 10.2% |
| Y18I | 5.45% |
| S150R | 8.04% |
| F5V | 20.3% |
| Q31T | 1.78% |
| V137N | -0.746% |
| V118P | -1.54% |
| H110L | 15.1% |
| C25K | -0.134% |
| I133E | 50.4% |
| I79T | 18.9% |
| F47R | -3.85% |
| Y141A | 4.73% |
| Q10T | 19.1% |
| S80M | 40.4% |
| E129C | 27.3% |

Set 5
Target: RNA binding protein fox-1 homolog 2, RRM domain, GST-SBP tag (RBFOX2, Homo sapiens, UniProt O43251-10, residues 100-194)
Technique: RNA Bind-n-Seq
Form: RNA
Sample: in vitro
Concentration: 365 nM
Setting: natural RNA segment, single round, ends assumed
Reference: no-protein control
Direction: higher = stronger binding
Shared flanks, not repeated: GGGAGUUCUACAGUCCGACGAUC … UGGAAUUCUCGGGUGCCAA
Residues (chain): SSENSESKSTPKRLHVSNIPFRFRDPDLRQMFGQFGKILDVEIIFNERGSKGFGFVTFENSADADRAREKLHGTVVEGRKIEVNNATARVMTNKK
| Strand | RBNS enrichment (R) |
| --- | --- |
| UUUUCUUUCAGUUUUUUUAAUCGCAUGUCUAGUAUAUUAAGUCUCCAUAGCCCUCCUGAUGCAGUAGACAGUGCUAUGCUGUGGAUAUAAUACCAACCAGAAAUUGGCAU | 11.1 |
| CUUUGCAUACUGUUCAUCGCAGUAGCAACAAAAUUGCAAUCAGCCAACAGGCUUUAAAACGUCCCUGAACGUACAGUAUUCUAAGUUACCGUGAGCCUUCACAAACAUCA | 0.3 |
| CCCAUUUAAACAGGAGUCCUCUUCAACUUCAGCUGAUUACAAUAACAAAAGGCGGAAUUGAAUUGUGCGAUGCCAACGGCCUUCUCAUUUACAGGUUUUUUUCCCCCACA | 0.564 |
| CCCCACAUGUAUCACAUACUGUCAUAUUCCCACAUGUAUCACACAUGUAUUGUAAAAUUUUGUAGUUUUGAUCACUUGUGAAUUUACUGUUGAUGUGGUAGCCACCUGCU | 0.328 |
| CAUUUUCAUGGCAGACCUAAGCUCAGACCCUGCCUUGUCCUGGCAAGCAUAGGUUUUCCCAGACCACAAUGCUGAUAUAUCUUAUUUAAUGCAGACUGUAUUCUUGCAGC | 0.41 |
| GAAAACGAUCCAAAGGAGGGCAGAGGCCGCACACCCUGGGCCGAGUCCUGCCCGACUUCCCAGUUAAAUGCUGCUUGUGCCCAGUGCUGCUUUCCCAAGCUCACCCCACC | 0.407 |
| ACCUUGUCCUAUAUAUCCGUACGGAGGUGUGCAAUUCCUCGUGUCAGUAGCCUUGUGACACUGAACCUGGAUGGAUUAUAGAGGAGCCCUCACGGCUGAUCAAUAAUGUU | 0.649 |
| GAUAUGCCUUGUAGCCAAAGUAUUAAAGGCUGAUGAACAUAGACAAGGGAAAUGCAUUUCUUAGAAAUCCGUGAACCCUCAGUUGUAUGCUUUCAGUACUCGUGUUAAUA | 0.361 |
| CCCUCCCCAGAAACAGUGUGCAUGGGUUAUUUUGGAGUGUAGGUGACUUGUUUACUCAUUGAAGCAGAUUUCUGCUUCCUUUUAUUUUUAUAGGAAUAGAGGAAGAAAUG | 9.99 |
| UUUAGAUUUCCCACAUGGAUGGUUUGAGACUAGAGAAAUACUUUUCUCUAGUUCGUUGGUUUUUAACAUGAAGGUGUCUUUGGGGAGGACCUGGAUCAUGCUACCUGUGU | 0.976 |
| ACUUUGCUUUGUUUAUAAAUAAAUUAGUAGAUUGGAAAAACUAGUGUUAGGGAAAGAAAUCACAUGUUCAGAGCCUAAUUCAGUAGGAAGGGCUUUUCUCUACCCUGAAA | 0.408 |
| GAUUUUGUUUUUUAGGAAAUAUACGAAGAGUCAUCAACUUGGAAAGGAAACAAAGAGUGCUUUUGGGCAUCCAACAGUUAAUCACUUAUGUUUUUAGAGCAUGCAAUCUU | 9.78 |

Set 6
Target: CCNB2, cyclin fold, Cln2 fusion (human)
Technique: yeast growth competition, sequencing
Sample: yeast
Setting: weak parent motif
Reference: not given
Direction: higher = stronger binding
Starting sequence: RBL1 docking peptide (human); GSAKRRLFGEDPP; partner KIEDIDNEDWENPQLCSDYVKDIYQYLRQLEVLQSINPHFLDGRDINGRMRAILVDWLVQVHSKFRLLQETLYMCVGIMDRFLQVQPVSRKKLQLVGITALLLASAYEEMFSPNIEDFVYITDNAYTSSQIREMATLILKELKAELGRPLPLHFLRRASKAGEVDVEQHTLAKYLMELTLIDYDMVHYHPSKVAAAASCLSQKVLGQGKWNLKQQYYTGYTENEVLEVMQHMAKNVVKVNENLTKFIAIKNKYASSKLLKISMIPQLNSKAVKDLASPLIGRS
| Variant | normalised enrichment score |
| --- | --- |
| GSAKRWLFGEDPP [R6W] | 0.0797 |
| GSAKRRVFGEDPP [L7V] | 0.455 |
| GSAKRRLFGECPP [D11C] | 0.447 |
| GSAKRRLFIEDPP [G9I] | 0.0528 |
| GSAPRRLFGEDPP [K4P] | -0.122 |
| GSAKRRLFGYDPP [E10Y] | -0.154 |
| GSAKRRLFHEDPP [G9H] | 0.0539 |
| GSAKRRTFGEDPP [L7T] | -0.196 |
| GSAKRRLFGEDPQ [P13Q] | -0.276 |
| GSAKRRLTGEDPP [F8T] | 0.184 |
| GSAKRRLWGEDPP [F8W] | -0.267 |
| GSAKRRLFNEDPP [G9N] | 0.634 |
| GSAKRRLFGEDPR [P13R] | 0.0837 |
| LSAKRRLFGEDPP [G1L] | 0.542 |
| GSAKARAFGEDPP [R5A L7A] | -0.185 |
| GSASRRLFGEDPP [K4S] | -0.527 |
| GSAKRRLKGEDPP [F8K] | 0.486 |
| GSHKRRLFGEDPP [A3H] | 0.492 |
| GSNKRRLFGEDPP [A3N] | -0.271 |
| GSAKNRLFGEDPP [R5N] | -0.212 |
| GSAKIRLFGEDPP [R5I] | -0.283 |
| GSAKRRLFGEDPV [P13V] | 0.793 |
| GRAKRRLFGEDPP [S2R] | 0.122 |
| KSAKRRLFGEDPP [G1K] | 0.306 |
| GSAKPRLFGEDPP [R5P] | 0.0951 |
